# Measured values gathered from unrelated publications.
# Parts stem from different laboratories: compare values within a part only. “And” joins repeats or separate records; there may be more than shown.
# UniProt P23458, sequence (whole entry, looked up): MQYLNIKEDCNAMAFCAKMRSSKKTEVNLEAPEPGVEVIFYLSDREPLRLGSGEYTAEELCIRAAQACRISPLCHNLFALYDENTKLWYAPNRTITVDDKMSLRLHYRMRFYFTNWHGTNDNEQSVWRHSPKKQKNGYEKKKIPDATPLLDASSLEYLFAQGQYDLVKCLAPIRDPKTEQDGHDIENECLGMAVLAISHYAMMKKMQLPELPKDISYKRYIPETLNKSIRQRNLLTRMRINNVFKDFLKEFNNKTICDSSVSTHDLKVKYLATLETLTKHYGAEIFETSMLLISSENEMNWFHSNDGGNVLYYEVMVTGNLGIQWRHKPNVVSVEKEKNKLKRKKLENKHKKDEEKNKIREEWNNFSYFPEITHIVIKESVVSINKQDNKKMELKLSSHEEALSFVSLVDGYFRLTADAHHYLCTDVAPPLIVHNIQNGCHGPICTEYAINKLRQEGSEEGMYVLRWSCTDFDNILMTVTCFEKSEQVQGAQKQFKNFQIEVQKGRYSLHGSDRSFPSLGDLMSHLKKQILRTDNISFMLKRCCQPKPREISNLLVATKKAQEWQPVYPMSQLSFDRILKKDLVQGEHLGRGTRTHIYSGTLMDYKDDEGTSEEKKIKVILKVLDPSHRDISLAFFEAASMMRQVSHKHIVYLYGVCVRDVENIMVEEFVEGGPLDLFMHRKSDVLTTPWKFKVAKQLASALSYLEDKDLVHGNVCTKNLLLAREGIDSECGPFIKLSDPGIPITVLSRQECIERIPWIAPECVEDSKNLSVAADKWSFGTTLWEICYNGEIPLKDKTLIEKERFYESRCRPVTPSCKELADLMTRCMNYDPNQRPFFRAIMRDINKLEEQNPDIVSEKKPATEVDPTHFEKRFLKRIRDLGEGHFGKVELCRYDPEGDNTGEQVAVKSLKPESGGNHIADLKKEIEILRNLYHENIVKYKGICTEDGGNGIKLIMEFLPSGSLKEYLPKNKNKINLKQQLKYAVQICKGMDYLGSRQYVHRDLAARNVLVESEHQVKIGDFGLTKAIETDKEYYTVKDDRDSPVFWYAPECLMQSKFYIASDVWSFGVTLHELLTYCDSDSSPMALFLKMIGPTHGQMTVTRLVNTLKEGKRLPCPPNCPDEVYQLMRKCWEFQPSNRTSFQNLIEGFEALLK
# UniProt Q9NQU5, sequence (whole entry, looked up): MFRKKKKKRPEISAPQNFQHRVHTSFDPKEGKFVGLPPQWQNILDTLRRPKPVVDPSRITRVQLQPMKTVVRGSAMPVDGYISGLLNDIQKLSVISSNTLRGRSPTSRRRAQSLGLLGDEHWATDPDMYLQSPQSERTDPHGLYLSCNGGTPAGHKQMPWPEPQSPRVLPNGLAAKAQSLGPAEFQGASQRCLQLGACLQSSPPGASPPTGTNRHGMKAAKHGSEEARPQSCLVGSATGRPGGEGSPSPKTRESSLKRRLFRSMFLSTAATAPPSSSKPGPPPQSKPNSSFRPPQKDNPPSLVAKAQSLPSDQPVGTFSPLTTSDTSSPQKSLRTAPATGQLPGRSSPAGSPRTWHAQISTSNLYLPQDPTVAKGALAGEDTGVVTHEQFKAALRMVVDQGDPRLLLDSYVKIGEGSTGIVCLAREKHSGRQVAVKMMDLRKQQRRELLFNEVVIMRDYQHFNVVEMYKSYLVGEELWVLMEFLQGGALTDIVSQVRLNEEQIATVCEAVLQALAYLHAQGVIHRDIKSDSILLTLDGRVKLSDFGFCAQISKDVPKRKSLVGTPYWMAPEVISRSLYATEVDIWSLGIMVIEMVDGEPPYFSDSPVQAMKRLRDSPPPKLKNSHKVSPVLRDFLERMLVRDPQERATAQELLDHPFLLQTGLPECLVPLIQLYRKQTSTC
# UniProt P00519, sequence (whole entry, unmodified, looked up): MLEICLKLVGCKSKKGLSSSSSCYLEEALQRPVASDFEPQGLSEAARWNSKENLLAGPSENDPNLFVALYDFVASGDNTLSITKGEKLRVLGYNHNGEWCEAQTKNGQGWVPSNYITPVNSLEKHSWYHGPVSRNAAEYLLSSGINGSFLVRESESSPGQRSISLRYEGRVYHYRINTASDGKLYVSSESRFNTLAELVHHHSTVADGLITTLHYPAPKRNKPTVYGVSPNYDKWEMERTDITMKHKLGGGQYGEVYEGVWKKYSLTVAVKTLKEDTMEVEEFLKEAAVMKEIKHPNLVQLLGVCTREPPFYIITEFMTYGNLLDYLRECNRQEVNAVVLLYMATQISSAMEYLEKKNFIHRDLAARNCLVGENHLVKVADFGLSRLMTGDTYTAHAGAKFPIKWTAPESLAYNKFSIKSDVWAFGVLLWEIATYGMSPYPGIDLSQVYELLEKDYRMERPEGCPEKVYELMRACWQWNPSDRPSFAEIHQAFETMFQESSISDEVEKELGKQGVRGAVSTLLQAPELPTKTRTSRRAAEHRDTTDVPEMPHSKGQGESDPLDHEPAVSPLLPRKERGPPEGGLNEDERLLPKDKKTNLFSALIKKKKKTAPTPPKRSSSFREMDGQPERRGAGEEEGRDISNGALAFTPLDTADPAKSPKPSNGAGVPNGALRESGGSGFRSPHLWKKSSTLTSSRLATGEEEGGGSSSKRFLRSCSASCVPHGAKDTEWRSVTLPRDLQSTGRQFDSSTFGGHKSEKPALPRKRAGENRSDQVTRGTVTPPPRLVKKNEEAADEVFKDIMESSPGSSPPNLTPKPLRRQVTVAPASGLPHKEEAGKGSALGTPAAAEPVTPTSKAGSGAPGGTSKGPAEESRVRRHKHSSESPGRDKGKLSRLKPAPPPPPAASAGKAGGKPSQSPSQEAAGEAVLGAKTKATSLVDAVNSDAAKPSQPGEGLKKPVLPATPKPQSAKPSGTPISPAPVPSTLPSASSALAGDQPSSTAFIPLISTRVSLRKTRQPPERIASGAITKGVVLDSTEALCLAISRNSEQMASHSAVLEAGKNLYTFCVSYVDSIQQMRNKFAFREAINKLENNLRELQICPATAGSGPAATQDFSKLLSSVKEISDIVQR
# UniProt Q9NYY3, sequence (whole entry, looked up): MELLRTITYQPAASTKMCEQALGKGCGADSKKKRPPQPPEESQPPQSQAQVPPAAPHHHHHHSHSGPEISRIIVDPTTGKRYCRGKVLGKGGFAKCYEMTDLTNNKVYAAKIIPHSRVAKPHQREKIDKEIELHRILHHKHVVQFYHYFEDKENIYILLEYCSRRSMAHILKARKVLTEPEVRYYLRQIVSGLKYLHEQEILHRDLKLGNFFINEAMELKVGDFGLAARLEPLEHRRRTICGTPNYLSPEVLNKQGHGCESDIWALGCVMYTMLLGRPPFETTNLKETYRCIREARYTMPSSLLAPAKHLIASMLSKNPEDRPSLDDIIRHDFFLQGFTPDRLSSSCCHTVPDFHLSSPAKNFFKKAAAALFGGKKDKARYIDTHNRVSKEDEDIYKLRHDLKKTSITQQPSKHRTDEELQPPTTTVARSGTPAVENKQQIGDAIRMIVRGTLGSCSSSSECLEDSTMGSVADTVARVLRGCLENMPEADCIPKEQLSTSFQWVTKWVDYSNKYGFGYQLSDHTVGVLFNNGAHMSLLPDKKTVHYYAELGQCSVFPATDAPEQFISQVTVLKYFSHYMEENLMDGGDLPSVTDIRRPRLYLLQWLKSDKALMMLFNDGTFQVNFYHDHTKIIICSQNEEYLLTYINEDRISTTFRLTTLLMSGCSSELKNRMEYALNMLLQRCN
# UniProt P52564, sequence (whole entry, looked up): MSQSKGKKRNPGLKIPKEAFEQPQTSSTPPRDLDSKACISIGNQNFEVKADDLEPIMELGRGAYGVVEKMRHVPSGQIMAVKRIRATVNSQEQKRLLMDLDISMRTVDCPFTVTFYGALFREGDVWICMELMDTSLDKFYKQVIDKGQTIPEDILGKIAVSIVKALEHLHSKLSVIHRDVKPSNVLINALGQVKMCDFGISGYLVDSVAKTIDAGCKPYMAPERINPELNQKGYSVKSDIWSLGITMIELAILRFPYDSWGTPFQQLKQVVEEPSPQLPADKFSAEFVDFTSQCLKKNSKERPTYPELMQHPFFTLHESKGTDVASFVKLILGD
# UniProt P48730, sequence (whole entry, looked up): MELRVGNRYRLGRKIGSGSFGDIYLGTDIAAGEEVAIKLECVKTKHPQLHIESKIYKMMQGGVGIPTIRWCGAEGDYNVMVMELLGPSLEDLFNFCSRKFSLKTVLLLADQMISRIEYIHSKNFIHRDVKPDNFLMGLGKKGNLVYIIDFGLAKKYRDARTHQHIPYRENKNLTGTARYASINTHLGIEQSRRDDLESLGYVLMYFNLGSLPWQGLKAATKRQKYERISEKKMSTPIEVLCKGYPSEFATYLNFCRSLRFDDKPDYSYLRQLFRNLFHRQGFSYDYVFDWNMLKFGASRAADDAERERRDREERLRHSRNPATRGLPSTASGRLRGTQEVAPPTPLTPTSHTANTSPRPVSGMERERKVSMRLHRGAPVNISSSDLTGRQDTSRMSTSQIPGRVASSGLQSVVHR
# UniProt Q9UBE8, sequence (whole entry, looked up): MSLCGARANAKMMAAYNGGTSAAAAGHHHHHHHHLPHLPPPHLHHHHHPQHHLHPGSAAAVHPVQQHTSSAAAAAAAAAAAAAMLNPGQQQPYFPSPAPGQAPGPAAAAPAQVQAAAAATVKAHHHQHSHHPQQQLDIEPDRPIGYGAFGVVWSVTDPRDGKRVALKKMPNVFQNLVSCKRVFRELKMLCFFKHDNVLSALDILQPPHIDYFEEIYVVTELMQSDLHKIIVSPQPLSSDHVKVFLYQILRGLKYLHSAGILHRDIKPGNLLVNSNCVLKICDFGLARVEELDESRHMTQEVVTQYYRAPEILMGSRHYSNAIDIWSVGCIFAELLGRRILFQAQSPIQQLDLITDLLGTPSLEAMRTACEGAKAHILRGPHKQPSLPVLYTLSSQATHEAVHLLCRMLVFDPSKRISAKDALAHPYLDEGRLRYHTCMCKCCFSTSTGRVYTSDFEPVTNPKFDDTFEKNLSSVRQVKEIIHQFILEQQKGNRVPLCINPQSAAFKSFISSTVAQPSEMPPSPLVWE

# Sample 1
# Cell line: mouse MPNST tumor cells
# Method: high-content nuclear imaging
# Refers to: cell number
# Concentration: 10 µM
# Time: 12 h
# Setting: mean of 2 replicates
# Reference: plate mean
# Reading: higher = more cells
Structure (SMILES),nuclei count
Clc1ccc(CCC(Cn2ccnc2)Sc2c(Cl)cccc2Cl)cc1 (stereo not shown),-0.227 z-score
CCOC(=O)[C@H](CCc1ccccc1)N[C@@H](C)C(=O)N1Cc2ccccc2C[C@H]1C(=O)O,2.66 z-score
CN(C)CCN1C(=O)c2ccccc2N(C)c2ccccc21,1.2 z-score
O=P(O)(O)C(O)(Cn1ccnc1)P(=O)(O)O,0.656 z-score
CNC(=C[N+](=O)[O-])NCCSCc1csc(CN(C)C)n1,0.557 z-score and 2.04 z-score
CC(C)NCC(O)c1ccc(O)c(O)c1 (stereo not shown),0.681 z-score
CCCC(=O)C1(c2ccccc2)CCN(C(=O)[C@@H](Cc2ccc(OC)cc2)NC(=O)[C@@H](N)Cc2cncn2C)CC1,4.11 z-score
O=C(NCCNCC(O)COc1ccc(O)cc1)N1CCOCC1 (stereo not shown),1.44 z-score and 1.51 z-score
O=C(NCC(O)CO)c1c(I)c(C(=O)NCC(O)CO)c(I)c(N(CCO)C(=O)CO)c1I (stereo not shown),0.867 z-score
CCCCS(=O)(=O)N[C@@H](Cc1ccc(OCCCCC2CCNCC2)cc1)C(=O)O,1.95 z-score
CCOC(=O)[C@H](CCc1ccccc1)N[C@H]1CCc2ccccc2N(CC(=O)O)C1=O,1.17 z-score and 0.803 z-score
CC(C)(CO)Cc1cc(C(C)(C)C)c(O)c(C(C)(C)C)c1,1.21 z-score
CN1CCc2cccc3c2[C@H]1Cc1ccc(O)c(O)c1-3,-4.61 z-score
COCCOC(=O)C1=C(C)NC(C)=C(C(=O)OC/C=C/c2ccccc2)C1c1cccc([N+](=O)[O-])c1 (stereo not shown),2.72 z-score and 3.58 z-score
COc1cc2c(cc1OC)CN(C(=O)C=Cc1c(-c3ccccc3)n(C)c3ncccc13)CC2,-0.34 z-score
Nc1ccc(S(=O)(=O)NC(=O)c2ccccc2)cc1,0.834 z-score

# Sample 2
# SMILES: C[C@H]1CC[C@H](n2c3cnccc3c3cnc(Nc4ccc5c(n4)CCN(C(=O)CO)C5)nc32)CC1
# Concentration: 1 µM
target,read-out,method,remaining binding
"RIPK2 (Homo sapiens, UniProt O43353)",binding,competition with immobilised ligand,100%
"DMPK (Homo sapiens, UniProt Q09013)",binding,competition with immobilised ligand,100%
"ACVR1 (Homo sapiens, UniProt Q04771)",cell-free assay,competition with immobilised ligand,97%
"FYN (Homo sapiens, UniProt P06241)",binding,competition with immobilised ligand,64%
"PDGFRA (Homo sapiens, UniProt P16234)",,DiscoverX KINOMEscan,62%
"TGFBR2 (Homo sapiens, UniProt P37173)",cell-free assay,competition with immobilised ligand,100%
"CSK (Homo sapiens, UniProt P41240)",cell-free assay,competition with immobilised ligand,89%
"HIPK3 (Homo sapiens, UniProt Q9H422)",binding,competition with immobilised ligand,34%
"EPHB3 (Homo sapiens, UniProt P54753)",cell-free assay,competition with immobilised ligand,83%
"CDKL5 (Homo sapiens, UniProt O76039)",binding,,12%
"CDC42BPA (Homo sapiens, UniProt Q5VT25)",cell-free assay,competition with immobilised ligand,100%
"CDKL3 (Homo sapiens, UniProt Q8IVW4)",binding,competition with immobilised ligand,100%
"CSNK1A1L (Homo sapiens, UniProt Q8N752)",binding,,79%
"ABL1 (Homo sapiens, UniProt P00519, F317L)",,,51% and 82%
"PRKACB (Homo sapiens, UniProt P22694)",cell-free assay,competition with immobilised ligand,100%

# Sample 3
# Structure (SMILES): O=C1Nc2ccccc2/C1=C\c1c(Cl)[nH]c2ccccc12
# Read-out: enzyme activity
# Action: inhibitor
# Concentration: 0.5 µM
# Reference: control
target,remaining activity
"PAK6 (Homo sapiens, UniProt Q9NQU5)",101%
"TEC (Homo sapiens, UniProt P42680)",124%
"MUSK (Homo sapiens, UniProt O15146)",96.4%
"SRPK1 (Homo sapiens, UniProt Q96SB4)",94.2%
"Cyclin-dependent kinase 2, with cyclin E (CDK2, Homo sapiens, UniProt P24941)",79.9%
"PAK1 (Homo sapiens, UniProt Q13153)",92.8%
"TYRO3 (Homo sapiens, UniProt Q06418)",99.4%
"EPHA2 (Homo sapiens, UniProt P29317)",97.3%
"CLK2 (Homo sapiens, UniProt P49760)",92.7%
"CAMKK1 (Homo sapiens, UniProt Q8N5S9)",116%
"CAMK1 (Homo sapiens, UniProt Q14012)",106%
"PRKCQ (Homo sapiens, UniProt Q04759)",91.7%
"MAP3K20 (Homo sapiens, UniProt Q9NYL2)",99.2%
"CSNK1D (Homo sapiens, UniProt P48730)",90.5%
"CLK1 (Homo sapiens, UniProt P49759)",103%
"CSNK1E (Homo sapiens, UniProt P49674)",87.8%
"RPS6KA3 (Homo sapiens, UniProt P51812)",82.9%
"FLT1 (Homo sapiens, UniProt P17948)",88.6%
"SGK2 (Homo sapiens, UniProt Q9HBY8)",103%
"JAK1 (Homo sapiens, UniProt P23458)",96.6%
"PRKCZ (Homo sapiens, UniProt Q05513)",103%
"IGF1R (Homo sapiens, UniProt P08069)",105%
"SIK2 (Homo sapiens, UniProt Q9H0K1)",103%

# Sample 4
# SMILES: CNCc1ccccc1-c1csc([C@H](C)Nc2nc(C)nc3cc(OC)c(OC)cc23)c1
# Read-out: cell-free assay
# Method: competition with immobilised ligand
# Concentration: 1 µM
target,remaining binding
"BRAF (Homo sapiens, UniProt P15056, V600E)",84%
"RIPK1 (Homo sapiens, UniProt Q13546)",100%
"Insulin receptor (INSR, Homo sapiens, UniProt P06213)",89%
"PI4KB (Homo sapiens, UniProt Q9UBF8)",74%
"PAK6 (Homo sapiens, UniProt Q9NQU5)",100%
"MYLK4 (Homo sapiens, UniProt Q86YV6)",100%
"TNK2 (Homo sapiens, UniProt Q07912)",100%
"ERBB3 (Homo sapiens, UniProt P21860)",87%
"MAP2K6 (Homo sapiens, UniProt P52564)",100%
"TTK (Homo sapiens, UniProt P33981)",100%
"eIF-2-alpha kinase GCN2, C-terminal kinase domain (EIF2AK4, Homo sapiens, UniProt Q9P2K8, S808G)",100%
"NLK (Homo sapiens, UniProt Q9UBE8)",100%
"PRKG1 (Homo sapiens, UniProt Q13976)",100%
"ROCK2 (Homo sapiens, UniProt O75116)",100%
"EPHA4 (Homo sapiens, UniProt P54764)",100%
"PLK2 (Homo sapiens, UniProt Q9NYY3)",83%
"PIK3C2B (Homo sapiens, UniProt O00750)",100%
"EPHA7 (Homo sapiens, UniProt Q15375)",100%
"Tyrosine-protein kinase JAK1, JH2 (JAK1, Homo sapiens, UniProt P23458)",68%
"BRSK2 (Homo sapiens, UniProt Q8IWQ3)",100%
"PIK3C3 (Homo sapiens, UniProt Q8NEB9)",93%
"CLK3 (Homo sapiens, UniProt P49761)",100%
"MAP2K2 (Homo sapiens, UniProt P36507)",100%
"KIT (Homo sapiens, UniProt P10721, D816H)",95%
"STK16 (Homo sapiens, UniProt O75716)",100%

# Excerpt of the above (sample 3):
target,remaining activity
"CLK1 (Homo sapiens, UniProt P49759)",103%
"CSNK1D (Homo sapiens, UniProt P48730)",90.5%
"Cyclin-dependent kinase 2, with cyclin E (CDK2, Homo sapiens, UniProt P24941)",79.9%
"PRKCZ (Homo sapiens, UniProt Q05513)",103%
"PAK1 (Homo sapiens, UniProt Q13153)",92.8%
"SGK2 (Homo sapiens, UniProt Q9HBY8)",103%
"SRPK1 (Homo sapiens, UniProt Q96SB4)",94.2%
"PAK6 (Homo sapiens, UniProt Q9NQU5)",101%
"CSNK1E (Homo sapiens, UniProt P49674)",87.8%
"IGF1R (Homo sapiens, UniProt P08069)",105%
